Measurements gathered from unrelated publications.
Lines come from different studies, so protocols differ. Values joined by “and” are separate records of one study, mostly repeats; a detail may differ.
Target: MAP kinase-activated protein kinase 5 (MAPKAPK5, Homo sapiens, UniProt Q8IW41)

SMILES | test | test system | conditions | how to read | measurement | result
COc1c(Cl)cccc1Nc1c(-c2ccncc2C#C[C@@]2(C)CCCN2C(=O)/C=C/CN(C)C)[nH]c2c1C(=O)NCC2 | binding, competition with immobilised ligand |  | 3 µM |  | remaining binding | 77%
Nc1ncc(-c2cc(-c3cnn(CC(F)(F)F)c3)ncc2F)nc1C(=O)NC1CNCC(F)C1 (stereo not drawn) | enzyme activity |  | 1 µM | baseline: DMSO control | remaining activity | 107%
C=CC(=O)Nc1cccc(-c2cnc3[nH]cc(C(=O)NC(C)(C)C)c3n2)c1 | kinase activity |  | 0.1 µM |  | inhibition | 5% and 4%
Cc1cnc2nc1Nc1cccc(c1)COC/C=C/COCc1cc(ccc1OCCN1CCOCC1)N2 | binding |  | 0.1 µM |  | remaining binding | 89%
C=CC(=O)N1CCc2ccc(-n3c(=O)ccc4cnc5ccc(-c6cnn(C)c6)cc5c43)cc21 | KINOMEscan |  | 1 µM | baseline: DMSO control | remaining binding | 98%
O=C(Nc1ccc(Oc2ncnc3[nH]cc(-c4ccccc4)c23)c(F)c1)c1c2n(n(-c3cc(F)ccc3F)c1=O)CCCC2 | enzyme activity, inhibitor |  | 0.5 µM |  | inhibition | 26%
O=C=[N][Ru-4]123([n]4c5ccc(O)cc5c5c6c(c7cc(F)c[n+]1c7c54)C(=O)NC6=O)[S+]1CC[S+]2CC[S+]3CC1 (stereo not drawn) | enzyme activity |  | 100 nM, human enzyme, with: 10 µM ATP | baseline: untreated | remaining activity | 86%
O=C(O)CCC(=O)c1cccc(NS(=O)(=O)c2c[nH]c3ncccc23)c1 | kinase activity, radiometric |  | 10 µM |  | remaining activity | 104%
COCC12C(=O)NC3C4(C(OC)CC1O)C1CC5(O)C(OC)C(O)C(OC(C)=O)(C1C5OC(=O)c1ccccc1)C3(O)C(OC)C24 (stereo not drawn) | kinase activity, inhibitor, ProQinase kinase profiling |  | 25 µM | baseline: control | remaining activity | 99% and 103%
Cc1cccc(-c2ccc3nc(NC(=O)C4CCCO4)nn3c2)c1 (stereo not drawn) | enzyme activity, Dundee kinase panel |  | 10 µM |  | remaining activity | 65%
N[C@H]1CC[C@H](Nc2nccc(-c3cccnc3Oc3ccc(NC(=O)NC4CC4)c4ccccc34)n2)CC1 | kinobead competition pulldown | HEK293/HCT116 lysate mixture | 10 µM, 1 h, 4 °C | lower = stronger competition | log2 LFQ intensity | 26.1 and 26 and 25.9
NC(=O)C[C@H]1CCc2sc3ncnc(O[C@H]4CC[C@H](N5CCOCC5)CC4)c3c21 | enzyme activity, inhibitor |  | 10 µM |  | inhibition | 1%
CC(C)=CC1OC(C)(C)C2C=C3C(=O)C(Cl)=CC(O)C3C3C(O)C4OC4C(=O)C132 (stereo not drawn) | cell-free assay, competition with immobilised ligand |  | 10 µM |  | remaining binding | 65%
Cc1cccc(-c2ccc3nc(NC(=O)C4CCCCC4)nn3c2)c1 | enzyme activity, Dundee kinase panel |  | 10 µM |  | remaining activity | 75%
COc1cc(Nc2nc(C)cc(-c3cnn4nc(OC)ccc34)n2)cc(C(F)(F)F)c1 | inhibitor |  | 1 µM | baseline: control | remaining activity | 82%
O=C(Cc1ccc(OCc2ccccc2)cc1)NC1(C(=O)O)CCN(C(=O)c2ccc(-c3cccc(Cl)c3)cc2)CC1 | enzyme activity, inhibitor |  | 10 µM |  | activity vs control | 134%
Cc1cccc(O[C@H]2CCC[C@@H](C(C)CNCc3ccncc3)C2)c1 (relative stereo) | enzyme activity, inhibitor |  | 1 µM |  | inhibition | 6%
O=c1c(-c2ccc(Cl)c(CN3CCOCC3)c2)coc2cc(O)ccc12 | enzyme activity, inhibitor |  | 1 µM |  | remaining activity | 106%

Some of these lines once more:
SMILES | test | test system | conditions | how to read | measurement | result
O=C(Cc1ccc(OCc2ccccc2)cc1)NC1(C(=O)O)CCN(C(=O)c2ccc(-c3cccc(Cl)c3)cc2)CC1 | enzyme activity, inhibitor |  | 10 µM |  | activity vs control | 134%
Cc1cnc2nc1Nc1cccc(c1)COC/C=C/COCc1cc(ccc1OCCN1CCOCC1)N2 | binding |  | 0.1 µM |  | remaining binding | 89%
